Results of several laboratories.
Each line is one published result; not all experiments were run side by side. ± gives the spread as reported.

With `C=Cc1cc(O)cc2nc(-c3ccc(O)c([76Br])c3)oc12` the tissue uptake was 0.03 ± 0.01 %ID/g (female C57BL/6 mouse, muscle; 6 h, high dose).
`N=C(N)NCc1ccc(C(=O)NCCCC[C@H](NC(=O)CCCCCCC(=O)NCCCC[C@H](NC(=O)N[C@@H](CCC(=O)O)C(=O)O)C(=O)O)C(=O)O)cc1[211At]` gave a tissue uptake of 0.42 ± 0.16 %ID/g (SCID mouse, PC-3 xenografts, bone; 21 h).
With `CCCC[C@H](NC(=O)CCOCCOCCNC(=O)CN1CCN(CC(=O)O)CCN(CC(=O)O)CCN(CC(=O)O)CC1)C(=O)N[C@H]1CC(=O)NCCCC[C@@H](C(N)=O)NC(=O)[C@H](Cc2c[nH]c3ccccc23)NC(=O)[C@H](CCCNC(=N)N)NC(=O)[C@@H](Cc2ccccc2)NC(=O)[C@H](Cc2c[nH]cn2)NC1=O` [gallium-68 labelled] the tissue uptake was 0.1 %ID/g (C57BL/6J mice male B16-F10 tumour, pancreas; 1 h post injection, unblocked).
The tissue uptake of `CCNc1cc2[o+]c3cc(NCC)c(C)cc3c(-c3ccccc3C(=O)OCCOCC[18F])c2cc1C` is reported as 0.07 ± 0.01 %ID/g (rat, blood; 30 min).
`CN[C@](C)(C[18F])C(=O)O` gave a tissue uptake of 3 ± 0.5 %ID/g (SCID mouse DU-145 xenograft, lung; 30 min post injection).
`N=C(N)NCc1ccc(C(=O)NCCCC[C@H](NC(=O)CCCCCCC(=O)NCCCC[C@H](NC(=O)N[C@@H](CCC(=O)O)C(=O)O)C(=O)O)C(=O)O)cc1[131I]` has a tissue uptake of 0.02 ± 0.01 %ID/g (SCID mouse, PC-3 xenografts, blood; 21 h).
With `O=C(O)CC[C@H](NC(=O)O[C@@H](CCCCNC(=O)c1ccc([18F])cc1)C(=O)O)C(=O)O` the tissue uptake was 0.15 ± 0.05 %ID/g (mouse, PC-3 PIP/flu xenografts, fat; 60 min).
With `N=C(N)NCc1ccc(C(=O)NCCCC[C@H](NC(=O)N[C@@H](CCC(=O)O)C(=O)O)C(=O)O)cc1[211At]` the tissue uptake was 0.75 ± 0.34 %ID/g (SCID mouse, PC-3 xenografts, heart; 4 h).
`COc1cc2ncnc(Oc3cccc(N[11C](=O)Nc4cc(C(C)(C)C(F)(F)F)on4)c3)c2cc1OC` gave a tissue uptake of 3.35 ± 0.15 %ID/g (Balb/c nude mouse, female, A375 melanoma xenograft, spleen; 6.6 MBq, 60 min).
The tissue uptake of `COc1cc(C(=O)NCCOCCOCCOCCNC(=O)c2ccc([18F])nc2)ccc1NC(=O)C1NC(CC(C)(C)C)C(C#N)(c2ccc(Cl)cc2F)C1c1cccc(Cl)c1F` (stereo not drawn) is reported as 2.13 ± 0.83 %ID/g (athymic male mice, SJSA-1 xenograft, large intestine; 2 h).
With `N=C(N)NCc1ccc(C(=O)NCCCC[C@H](NC(=O)N[C@@H](CCC(=O)O)C(=O)O)C(=O)O)cc1[131I]` the tissue uptake was 0.42 ± 0.06 %ID/g (SCID mouse, PC-3 xenografts, muscle; 1 h).
`O=C(c1ccc(F)cc1)C1CCN(C2Cc3c(cccc3OCC[18F])CC2O)CC1` (single isomer, unassigned; (-)) gave a tissue uptake of 0.482 ± 0.037 %ID/g (Sprague-Dawley rat, male, whole brain; 30 min post-injection).

A few entries again:
The tissue uptake of `CCNc1cc2[o+]c3cc(NCC)c(C)cc3c(-c3ccccc3C(=O)OCCOCC[18F])c2cc1C` is reported as 0.07 ± 0.01 %ID/g (rat, blood; 30 min).
